Published values of several laboratories.
Parts stem from different laboratories: compare values within a part only. Substitutions count along the parent as printed.

Set 1 — technique: universal PBM; form: double-stranded DNA, one strand shown; matrix: in vitro; tested at: 600 nM; direction: higher = stronger binding
Target: Sal-like protein 4, full length isoform A (SALL4, Homo sapiens, UniProt Q9UJQ4, residues 1-1053)
Sequence of UniProt Q9UJQ4 (whole entry, looked up): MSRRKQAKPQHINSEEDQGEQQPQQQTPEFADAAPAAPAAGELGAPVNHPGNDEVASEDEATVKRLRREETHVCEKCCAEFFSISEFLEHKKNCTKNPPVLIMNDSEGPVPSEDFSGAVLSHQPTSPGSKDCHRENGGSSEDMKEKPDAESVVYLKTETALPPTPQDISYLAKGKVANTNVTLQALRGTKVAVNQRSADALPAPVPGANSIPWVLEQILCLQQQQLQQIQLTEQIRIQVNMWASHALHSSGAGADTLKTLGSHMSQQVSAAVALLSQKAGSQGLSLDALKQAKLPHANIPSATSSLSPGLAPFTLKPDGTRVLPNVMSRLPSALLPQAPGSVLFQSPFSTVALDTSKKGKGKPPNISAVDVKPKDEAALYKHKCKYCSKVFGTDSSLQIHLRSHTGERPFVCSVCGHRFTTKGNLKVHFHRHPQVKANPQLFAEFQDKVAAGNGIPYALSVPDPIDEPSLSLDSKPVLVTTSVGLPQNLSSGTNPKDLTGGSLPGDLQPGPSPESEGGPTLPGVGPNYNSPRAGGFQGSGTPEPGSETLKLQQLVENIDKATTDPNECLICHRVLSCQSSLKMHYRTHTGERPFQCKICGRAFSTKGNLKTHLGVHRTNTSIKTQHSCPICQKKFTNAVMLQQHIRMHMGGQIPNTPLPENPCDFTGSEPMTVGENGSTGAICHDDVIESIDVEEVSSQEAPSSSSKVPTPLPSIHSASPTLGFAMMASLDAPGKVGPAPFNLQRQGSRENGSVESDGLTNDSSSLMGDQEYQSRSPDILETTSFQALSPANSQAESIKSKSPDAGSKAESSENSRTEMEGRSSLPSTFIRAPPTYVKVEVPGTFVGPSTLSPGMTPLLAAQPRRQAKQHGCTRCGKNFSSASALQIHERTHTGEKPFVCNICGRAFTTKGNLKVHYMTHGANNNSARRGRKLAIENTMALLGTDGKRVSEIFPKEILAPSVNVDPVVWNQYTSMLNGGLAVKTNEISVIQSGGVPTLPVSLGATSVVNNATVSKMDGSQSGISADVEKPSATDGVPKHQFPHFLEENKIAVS
Notes: 8-mer, flanks averaged, mean of replicates
Oligonucleotide	E-score
TCAAGCAA	0.079
CACCCCTC	-0.349
ATAGCGTG	0.0662
ATGGTCCG	-0.157
ACACCACG	-0.204
ACTCTGAT	0.0512
TGCATGAA	0.182
CTGAAGCC	-0.162
GCGATAAC	0.112
AAACTCGT	0.099
ACGGCAGC	-0.199
GCTGTAAA	0.169
CCCACTAC	-0.244

Set 2 — technique: RNA Bind-n-Seq; form: RNA; matrix: in vitro; tested at: 200 nM; notes: whole 134-nt RNA, ends assumed; with: 150 mM LiCl; baseline: input library; direction: higher = stronger binding; all molecules: 7-deaza-guanosine replaces G
Target: Fragile X messenger ribonucleoprotein 1, C-terminal low-complexity region (Fmr1, Mus musculus, UniProt P35922)
Shared flanks, not repeated: GGGAGUUCUACAGUCCGACGAUC … UGGAAUUCUCGGGUGUCAAGG
Oligonucleotide	log2 enrichment
AAGUCCUGUGCUACACAUCGUAUGUACCGAAUCAAAUUUAAAUUUUUAAACCCAAAAAAGUAUUAUGUUACGCCGUUCGGAUCUGCACUU	-0.505
UCAACAAGAGAUGUUCAAGAACUUUUGACACAAUAUACCAAGUUUGCACAGAUGGUAAAAAAGAUGGGAGGUAUCAAAGGACUUUUCAAA	-1.13
CACAGACAACACGCACUCACACAGACACAGAGGGAAGGGGUUGGGAUGGGGACAGGGUGCACAGCAGGGCGGGGUAGGACCCCAGCCCCU	0.485
UUCACACCAAGCUGGGGAACAUCAAGACCUUAAACCUGGCAGGCAACCUCCUAGAGAGUCUGAGUGGCCUGCACAAGCUCUACUCACUGG	-0.804
GUCCUGUGCUACACAUCGUAUGUACCGAAUCGGUUUUUUUGGAAAAAAAGGAAAAAGGAAAGUAUUAUGUUACGCCGUUCGGAUCUGCAC	-2.55
UGGCCCUGGUGGCAUGCGGGGAGGAAGAGGUUGCCUCAUGGAUCGUGGUGGUCCCGGUGGAAUGUUCAGAGGUGGCCGUGGUGGAGACAG	0.184
GCAGGAAGUAAAAACAAAUGGAAAUGCUUCGGAUAGUGGCAGGGGUGGGGGUUGCUAAGGAAAGGGUGGGAUGGGAGUGUGUAAAGAGUU	1.41
CUCAAGUCCUGUGCUACACAUCGUAUGUACCGAAUCGGUUUUUGGUGGUUUGGAAAGUAUUAUGUUACGCCGUUCGGAUCUGCACUUCCA	-0.73

Set 3 — target: CCND1, cyclin fold, Cln2 fusion (human); technique: yeast growth competition, sequencing; matrix: yeast; notes: weak parent motif; baseline: not given; direction: higher = stronger binding
Parent: PKMYT1 docking peptide (human); SFEPRNLLSLFED; partner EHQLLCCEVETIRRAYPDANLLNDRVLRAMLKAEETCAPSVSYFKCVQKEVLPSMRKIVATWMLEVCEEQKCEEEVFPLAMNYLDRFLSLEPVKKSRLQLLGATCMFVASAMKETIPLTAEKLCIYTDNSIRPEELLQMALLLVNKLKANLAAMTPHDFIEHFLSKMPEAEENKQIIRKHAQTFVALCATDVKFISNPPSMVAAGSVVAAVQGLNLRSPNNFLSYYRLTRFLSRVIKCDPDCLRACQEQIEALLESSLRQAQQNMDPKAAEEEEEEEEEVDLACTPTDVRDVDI
Substitution	normalised enrichment score
N6R	0.822
F11G	0.772
P4E	0.931
R5N	1.61
E12C	1.23
E3G	0.119
R5H	0.411
L7V	1.22
S9A	1.04
D13Y	1.11
N6C	1.5
L8N	1.02

Set 4 — technique: protein binding microarray; form: double-stranded DNA, one strand shown; matrix: in vitro; tested at: not given; baseline: not given; direction: higher = stronger binding
Target: Histone acetyltransferase KAT6A, winged helix 1, GST fusion (KAT6A, Homo sapiens, UniProt Q92794, residues 1-85)
Notes: 8-mer, flanks averaged, mean of 2 arrays, mostly near background
Target sequence (chain): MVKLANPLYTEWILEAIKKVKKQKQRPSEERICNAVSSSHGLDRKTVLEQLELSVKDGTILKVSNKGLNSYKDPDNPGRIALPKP
Oligonucleotide	E-score
TCTGATCA	-0.168
GCAAAATA	-0.166
GACTAGGA	-0.165
ATCCGAAG	-0.151
GCCCTACC	0.0188
CCGTCAAG	0.261
AGATCCAG	-0.13
TCACATCA	-0.281
CGGTTTAA	0.122
TAAGTTCA	-0.166
ATATCGCA	-0.0275
CTCCCTAA	-0.0269
CAGAGGAA	-0.247
GTCAGAAA	-0.276

Repeated from above (set 1):
Oligonucleotide	E-score
ATAGCGTG	0.0662
ATGGTCCG	-0.157
ACACCACG	-0.204
ACTCTGAT	0.0512
